Experimental data gathered from unrelated publications.
Lines come from different studies, so protocols differ. ± marks the error that the study gave.
Organism: HIV-1

SMILES | test | system | conditions | scale | endpoint | result
O=P(O)(O)Oc1c2c(c(OP(=O)(O)O)c3c1C1CC3c3cc4ccccc4cc31)C1CC2c2cc3ccccc3cc21 | inhibitor | TZM-bl | 20-fold molar excess, together with: PAP85-120 and SEM1 fibrils |  | enhancement of infection | inactive
COc1ccc(-n2c(SCCCN3CCOCC3)nnc2[C@H](Cc2ccccc2)NC(=O)Cc2c(C)[nH]c3ccccc23)cc1 |  | MT-4, wild type |  | relative to: CC50 over EC50 | selectivity index | 83
CC(C)C[C@H](NC(=O)[C@H](CCCCN)NC(=O)[C@H](CC(C)C)NC(=O)[C@]1(C)CCCC=CCCC[C@](C)(N)C(=O)N[C@@H](C)C(=O)N[C@@H](Cc2ccc(O)cc2)C(=O)N[C@@H](Cc2ccccc2)C(=O)N1)C(=O)N[C@@H](C)C(=O)NCC(=O)N[C@@H](CCCNC(=N)N)C(=O)N[C@@H](Cc1c[nH]c2ccccc12)C(N)=O |  |  |  |  | EC50 | 4000 nM
Cc1cn(C2CC(N(C)C)C(CO)O2)c(=O)[nH]c1=O (stereo not drawn) | MTT | MT-4, ROD and IIIB | concentration not given |  | antiviral activity | inactive
CC[C@H](C)[C@H](NC(=O)[C@H](C)NC(=O)[C@H](CCC(=O)O)NC(C)=O)C(=O)N[C@H](C(=O)N[C@@H](CCCNC(=N)N)C(=O)NC1CCCC=CCCCC(C(=O)N[C@@H](CC(C)C)C(=O)N[C@@H](Cc2ccccc2)C(=O)N[C@H](C(=O)N[C@@H](Cc2c[nH]cn2)C(=O)N[C@@H](Cc2ccccc2)C(=O)N[C@@H](CCCNC(=N)N)C(=O)N[C@H](C(=O)NCC(N)=O)[C@@H](C)CC)[C@@H](C)CC)NC(=O)[C@H](CCC(N)=O)NC(=O)[C@H](CCC(N)=O)NC(=O)[C@H](CC(C)C)NC1=O)[C@@H](C)CC (stereo partly drawn) | viral replication, luciferase reporter | MT-4, NL4-3 |  |  | active concentration | 10 µM
CC(=O)N[C@@H](CS)C(=O)N[C@@H](CO)C(=O)N[C@@H](CO)C(=O)N[C@@H](Cc1c[nH]c2ccccc12)C(=O)N[C@@H](Cc1ccccc1)C(=O)N1CCC[C@H]1C(=O)N[C@@H](Cc1ccccc1)C(=O)N[C@@H](CO)C(=O)N[C@@H](CCC(N)=O)C(=O)N[C@@H](Cc1ccc(O)cc1)C(=O)N[C@@H](CCC(N)=O)C(=O)N[C@@H](Cc1c[nH]c2ccccc12)C(=O)N[C@@H](Cc1c[nH]c2ccccc12)C(=O)N[C@@H](CCCCN)C(N)=O |  | 89.6 (R5/X4) | concentration not given |  | neutralisation activity | inactive
O=C1c2c(ccc(O)c2O)CN1Cc1cccc(Cl)c1F | viral replication | wild type, VSV-G pseudotyped |  |  | EC50 | 500 ± 40 nM
Cl.Cl.Cl.Cl.Cl.Cl.Cl.Cl.Cl.Cl.Cl.Cl.NC[C@@H]1O[C@H](O[C@H]2[C@@H](O)[C@H](O[C@@H]3[C@@H](O)[C@H](N)C[C@H](N)[C@H]3O[C@H]3O[C@H](CN)[C@@H](O)[C@H](O)[C@H]3N)O[C@@H]2Cn2cc(-c3ccc(-c4cn(C[C@H]5O[C@@H](O[C@@H]6[C@@H](O)[C@H](N)C[C@H](N)[C@H]6O[C@H]6O[C@H](CN)[C@@H](O)[C@H](O)[C@H]6N)[C@H](O)[C@@H]5O[C@H]5O[C@@H](CN)[C@@H](O)[C@H](O)[C@H]5N)nn4)cc3)nn2)[C@H](N)[C@@H](O)[C@@H]1O | HIV cytopathic effect, neutral red | MT-2 |  |  | maximum protection | 33%
Cc1nc([C@H](NC(=O)c2ccc(-c3ccc(Cl)cc3)[nH]2)[C@H]2CCCCN2)sc1CO | viral entry | TZM-bl, panel of 56 Env pseudoviruses | up to 2 µM |  | sensitive viruses | 71%

For quick reference, copied from above:
SMILES | test | system | conditions | scale | endpoint | result
O=C1c2c(ccc(O)c2O)CN1Cc1cccc(Cl)c1F | viral replication | wild type, VSV-G pseudotyped |  |  | EC50 | 500 ± 40 nM
